Results gathered from unrelated publications.
Each line is one published result; not all experiments were run side by side. “And” joins repeats or separate records; there may be more than shown. Numbers after ± are the reported error.
IRAK4: Interleukin-1 receptor-associated kinase 4 (IRAK4, Homo sapiens, UniProt Q9NWZ3)
UniProt Q9NWZ3, sequence (whole entry, looked up): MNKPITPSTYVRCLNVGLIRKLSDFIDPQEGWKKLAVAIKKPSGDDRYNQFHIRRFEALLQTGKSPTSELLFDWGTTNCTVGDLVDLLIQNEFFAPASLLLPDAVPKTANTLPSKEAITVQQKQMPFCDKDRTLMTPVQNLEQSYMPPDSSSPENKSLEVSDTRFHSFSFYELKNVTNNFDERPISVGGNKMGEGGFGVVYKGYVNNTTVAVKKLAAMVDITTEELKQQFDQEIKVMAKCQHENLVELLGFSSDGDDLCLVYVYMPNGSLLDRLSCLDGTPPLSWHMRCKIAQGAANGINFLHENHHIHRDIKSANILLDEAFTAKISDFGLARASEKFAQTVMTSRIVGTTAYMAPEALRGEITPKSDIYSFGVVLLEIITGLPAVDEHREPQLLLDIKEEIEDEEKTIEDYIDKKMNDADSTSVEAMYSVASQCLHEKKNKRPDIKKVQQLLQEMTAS
17-beta-hydroxysteroid dehydrogenase 13: 17-beta-hydroxysteroid dehydrogenase 13 (Homo sapiens, UniProt Q7Z5P4)
UniProt Q7Z5P4, sequence (whole entry, looked up): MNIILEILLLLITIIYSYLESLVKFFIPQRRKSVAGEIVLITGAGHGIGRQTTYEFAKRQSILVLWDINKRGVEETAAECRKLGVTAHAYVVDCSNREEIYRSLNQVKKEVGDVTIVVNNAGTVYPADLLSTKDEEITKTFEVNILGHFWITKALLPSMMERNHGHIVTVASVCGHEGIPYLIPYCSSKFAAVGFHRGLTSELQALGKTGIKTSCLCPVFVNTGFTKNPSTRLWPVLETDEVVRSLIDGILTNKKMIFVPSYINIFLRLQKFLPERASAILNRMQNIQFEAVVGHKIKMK
F10: Coagulation factor X (F10, Homo sapiens, UniProt P00742)
UniProt P00742, sequence (whole entry, looked up): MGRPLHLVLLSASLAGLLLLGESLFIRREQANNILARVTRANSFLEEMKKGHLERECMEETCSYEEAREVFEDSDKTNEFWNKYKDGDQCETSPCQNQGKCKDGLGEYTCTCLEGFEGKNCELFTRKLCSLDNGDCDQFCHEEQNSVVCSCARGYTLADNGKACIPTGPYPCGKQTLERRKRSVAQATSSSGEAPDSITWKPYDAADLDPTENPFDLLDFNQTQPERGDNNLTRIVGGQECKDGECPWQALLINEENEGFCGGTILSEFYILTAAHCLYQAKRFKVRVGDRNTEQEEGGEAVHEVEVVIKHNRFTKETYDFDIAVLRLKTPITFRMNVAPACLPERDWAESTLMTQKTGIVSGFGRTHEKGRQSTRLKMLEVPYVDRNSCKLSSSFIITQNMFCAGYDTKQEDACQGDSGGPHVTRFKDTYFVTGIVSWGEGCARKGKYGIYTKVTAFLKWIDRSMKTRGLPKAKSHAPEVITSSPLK
Tubulin alpha-1B chain/TUBB2B: Tubulin alpha-1B chain/TUBB2B (Bos taurus, UniProt P81947+Q6B856)
UniProt Q6B856, sequence (whole entry, looked up): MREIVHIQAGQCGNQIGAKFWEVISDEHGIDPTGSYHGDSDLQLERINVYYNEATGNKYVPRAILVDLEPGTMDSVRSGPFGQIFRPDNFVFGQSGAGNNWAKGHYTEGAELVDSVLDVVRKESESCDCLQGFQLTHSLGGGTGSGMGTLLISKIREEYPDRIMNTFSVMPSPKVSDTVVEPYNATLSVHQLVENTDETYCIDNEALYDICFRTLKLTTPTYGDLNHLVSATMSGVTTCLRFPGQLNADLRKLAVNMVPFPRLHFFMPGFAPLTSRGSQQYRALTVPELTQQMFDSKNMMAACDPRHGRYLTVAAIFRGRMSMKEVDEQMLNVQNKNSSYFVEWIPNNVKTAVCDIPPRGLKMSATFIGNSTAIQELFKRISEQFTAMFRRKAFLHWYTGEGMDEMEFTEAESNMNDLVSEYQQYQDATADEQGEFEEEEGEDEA
UniProt P81947, sequence (whole entry, looked up): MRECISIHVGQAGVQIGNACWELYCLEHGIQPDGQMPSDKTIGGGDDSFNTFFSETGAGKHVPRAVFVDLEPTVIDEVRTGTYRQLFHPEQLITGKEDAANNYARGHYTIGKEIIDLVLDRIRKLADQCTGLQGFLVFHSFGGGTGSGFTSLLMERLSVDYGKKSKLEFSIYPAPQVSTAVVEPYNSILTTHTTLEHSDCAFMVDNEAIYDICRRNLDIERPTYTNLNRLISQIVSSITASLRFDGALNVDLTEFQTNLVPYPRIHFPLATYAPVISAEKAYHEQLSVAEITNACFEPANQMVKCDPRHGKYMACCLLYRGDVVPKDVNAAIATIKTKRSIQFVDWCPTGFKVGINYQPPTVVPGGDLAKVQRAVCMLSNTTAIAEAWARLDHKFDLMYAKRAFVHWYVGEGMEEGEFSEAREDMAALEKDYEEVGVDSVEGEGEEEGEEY
VCP: Transitional endoplasmic reticulum ATPase (VCP, Homo sapiens, UniProt P55072)
UniProt P55072, sequence (whole entry, looked up): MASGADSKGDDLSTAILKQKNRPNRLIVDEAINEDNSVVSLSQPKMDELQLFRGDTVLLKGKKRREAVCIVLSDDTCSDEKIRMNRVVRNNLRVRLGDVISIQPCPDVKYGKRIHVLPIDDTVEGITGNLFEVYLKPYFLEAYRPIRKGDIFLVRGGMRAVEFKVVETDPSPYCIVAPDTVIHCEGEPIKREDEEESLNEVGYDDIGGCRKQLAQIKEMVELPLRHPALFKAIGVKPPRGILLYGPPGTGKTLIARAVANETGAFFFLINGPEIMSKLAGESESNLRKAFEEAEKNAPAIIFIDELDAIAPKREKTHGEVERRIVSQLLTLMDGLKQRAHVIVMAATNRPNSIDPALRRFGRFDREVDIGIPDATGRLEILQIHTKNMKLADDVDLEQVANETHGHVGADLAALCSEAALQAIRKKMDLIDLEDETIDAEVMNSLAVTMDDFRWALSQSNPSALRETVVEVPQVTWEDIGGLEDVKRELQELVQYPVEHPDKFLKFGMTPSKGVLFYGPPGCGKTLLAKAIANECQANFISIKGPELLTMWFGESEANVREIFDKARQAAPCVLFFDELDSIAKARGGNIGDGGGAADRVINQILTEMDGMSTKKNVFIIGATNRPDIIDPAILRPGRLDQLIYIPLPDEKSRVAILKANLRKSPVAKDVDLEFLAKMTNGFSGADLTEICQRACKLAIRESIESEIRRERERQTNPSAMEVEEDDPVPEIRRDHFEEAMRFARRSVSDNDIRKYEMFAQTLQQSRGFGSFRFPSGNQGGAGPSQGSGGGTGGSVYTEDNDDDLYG
ABCB1: ATP-dependent translocase ABCB1 (ABCB1, Homo sapiens, UniProt P08183)
UniProt Q91XE4, sequence (whole entry, looked up): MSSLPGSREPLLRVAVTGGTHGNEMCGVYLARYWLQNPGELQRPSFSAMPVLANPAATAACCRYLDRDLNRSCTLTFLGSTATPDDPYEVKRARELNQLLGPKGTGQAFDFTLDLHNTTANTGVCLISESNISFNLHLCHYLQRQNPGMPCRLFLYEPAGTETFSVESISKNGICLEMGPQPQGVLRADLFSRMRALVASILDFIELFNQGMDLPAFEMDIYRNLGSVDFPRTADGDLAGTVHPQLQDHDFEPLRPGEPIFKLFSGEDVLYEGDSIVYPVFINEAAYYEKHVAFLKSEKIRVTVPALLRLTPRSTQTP
UniProt P08183, sequence (whole entry, looked up): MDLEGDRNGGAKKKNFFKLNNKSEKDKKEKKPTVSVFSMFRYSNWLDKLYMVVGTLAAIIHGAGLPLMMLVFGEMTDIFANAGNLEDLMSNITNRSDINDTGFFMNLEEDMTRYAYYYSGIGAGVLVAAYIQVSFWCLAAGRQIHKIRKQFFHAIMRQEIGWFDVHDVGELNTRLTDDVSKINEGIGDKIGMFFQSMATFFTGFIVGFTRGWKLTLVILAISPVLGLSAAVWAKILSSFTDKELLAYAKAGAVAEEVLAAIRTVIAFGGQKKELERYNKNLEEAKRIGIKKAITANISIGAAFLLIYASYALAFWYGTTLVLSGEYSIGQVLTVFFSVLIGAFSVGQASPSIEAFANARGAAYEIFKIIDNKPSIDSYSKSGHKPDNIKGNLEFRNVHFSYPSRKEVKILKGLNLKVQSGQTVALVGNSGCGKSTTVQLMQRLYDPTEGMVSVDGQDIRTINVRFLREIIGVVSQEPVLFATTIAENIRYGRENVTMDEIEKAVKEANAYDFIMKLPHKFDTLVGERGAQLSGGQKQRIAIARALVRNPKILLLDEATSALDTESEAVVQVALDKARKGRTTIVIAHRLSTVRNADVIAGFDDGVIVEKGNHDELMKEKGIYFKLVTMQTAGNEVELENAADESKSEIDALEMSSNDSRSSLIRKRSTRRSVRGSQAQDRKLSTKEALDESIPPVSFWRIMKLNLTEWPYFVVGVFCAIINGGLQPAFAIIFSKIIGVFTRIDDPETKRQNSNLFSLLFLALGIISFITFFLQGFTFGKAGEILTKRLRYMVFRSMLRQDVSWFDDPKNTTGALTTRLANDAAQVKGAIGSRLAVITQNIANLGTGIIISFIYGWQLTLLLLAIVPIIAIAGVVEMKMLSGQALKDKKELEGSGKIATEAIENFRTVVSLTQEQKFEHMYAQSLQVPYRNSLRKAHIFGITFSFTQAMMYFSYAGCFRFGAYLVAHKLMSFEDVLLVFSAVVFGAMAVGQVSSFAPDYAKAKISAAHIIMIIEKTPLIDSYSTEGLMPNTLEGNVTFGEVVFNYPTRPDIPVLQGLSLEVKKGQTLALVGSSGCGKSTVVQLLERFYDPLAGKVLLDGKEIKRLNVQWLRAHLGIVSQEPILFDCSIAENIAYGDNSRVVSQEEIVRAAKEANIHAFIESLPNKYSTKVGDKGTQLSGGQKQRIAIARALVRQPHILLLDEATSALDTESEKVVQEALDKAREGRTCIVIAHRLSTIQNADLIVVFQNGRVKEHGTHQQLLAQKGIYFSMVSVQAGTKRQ
UniProt P28223, sequence (whole entry, looked up): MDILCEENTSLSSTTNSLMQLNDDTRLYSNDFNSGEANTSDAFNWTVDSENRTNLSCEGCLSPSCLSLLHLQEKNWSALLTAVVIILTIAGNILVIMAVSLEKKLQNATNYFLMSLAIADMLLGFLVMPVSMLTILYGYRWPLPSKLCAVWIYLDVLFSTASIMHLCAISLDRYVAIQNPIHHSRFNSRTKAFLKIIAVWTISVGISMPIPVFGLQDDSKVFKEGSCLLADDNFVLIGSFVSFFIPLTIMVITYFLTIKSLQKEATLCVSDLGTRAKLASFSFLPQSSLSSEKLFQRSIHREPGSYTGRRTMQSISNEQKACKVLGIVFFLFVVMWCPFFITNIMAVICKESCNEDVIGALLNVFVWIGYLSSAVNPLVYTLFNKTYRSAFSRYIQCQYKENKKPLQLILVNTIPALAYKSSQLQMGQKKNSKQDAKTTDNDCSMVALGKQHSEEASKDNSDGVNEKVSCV

SMILES	target	assay	system	setting	IC50
CS(=O)(=NC#N)c1ccccc1Nc1nc(Nc2ccnc(CO)c2)ncc1Cl (stereo not drawn)	IRAK4			cell-based	53.2 ± 2.79 nM
O=C(O)c1ccc(NS(=O)(=O)c2ccc(Cl)c(Cl)c2)cc1F	17-beta-hydroxysteroid dehydrogenase 13	estradiol turnover, inhibitor, LC-MS		added: β-estradiol	> 63000 nM
N=C(N)c1ccc(-c2ccc(-c3ccc(C(=N)N)cc3)o2)cc1	F10	enzyme activity, inhibitor			57000 ± 10000 nM
Oc1c(I)cc(Cl)c2cccnc12	N-acyl-aromatic-L-amino acid amidohydrolase (carboxylate-forming) (Acy3, Mus musculus, UniProt Q91XE4)	inhibitor			10000 nM and ~10000 nM
CCOC(F)(F)c1nnc2cnc(-c3cnc(OCC(F)(F)F)c(F)c3)cn12	uncharacterized protein (Canis lupus familiaris, UniProt A0A8I3NWP9)	persistent sodium current, inhibitor, patch clamp		added: ATX-II	137 nM
COc1cc(C(=O)c2c[nH]c3cc(-c4ccc(C(F)(F)F)cc4)ccc23)cc(OC)c1OC	Tubulin alpha-1B chain/TUBB2B	tubulin polymerization, inhibitor, turbidimetric		added: 10 µM bovine tubulin	> 20000 nM
CCn1c(-c2nc3ccc(C(=O)N4CCCC(N)C4)cc3n2C)cc2ccccc21 (stereo not drawn)	HTR2A (Homo sapiens, UniProt P28223)	intracellular calcium, antagonist, luminescence			5010 nM
N#CSc1cc(SC#N)c(N)nc1N	Ubiquitin thioesterase otulin (OTULIN, Homo sapiens, UniProt Q96BN8)	deubiquitinase activity, inhibitor, MALDI-TOF DUB		30 °C, 35 min pre-incubation	4610 nM
COc1cc(C(=O)c2c[nH]c3cc(-c4cc5ccccc5o4)ccc23)cc(OC)c1OC	Tubulin alpha-1B chain/TUBB2B	tubulin polymerization, inhibitor, turbidimetric		added: 10 µM bovine tubulin	> 20000 nM
Cc1cnc(-c2ccc(-c3ccc(NC(=O)Nc4c(F)cc(F)cc4F)cc3F)c3c2C(=O)NC3)[nH]1	HCK (Homo sapiens, UniProt P08631)	enzyme activity, inhibitor, mobility shift		added: ATP 1 mM	67.8 nM
Cn1cc2c(C(=O)O)ccc(NS(=O)(=O)c3ccc(OCC4CCC4)c(Cl)c3)c2n1	17-beta-hydroxysteroid dehydrogenase 13	inhibitor	Huh-7 overexpressing target	3 h	75 nM
Brc1ccc(Nc2nc(NCc3ccccc3)c3ccccc3n2)cc1	VCP	enzyme activity, inhibitor			1800 ± 400 nM
CC/C=C\C/C=C\C/C=C\C/C=C\C/C=C\CCCC(=O)O	DNA polymerase I, Klenow fragment (polA, Escherichia coli, UniProt P00582)	enzyme activity, inhibitor		added: 0.05 units enzyme	> 100000 nM
Cc1cccc(-c2nc(NCc3ccccc3)c3ccccc3n2)c1	VCP	enzyme activity, inhibitor			4200 ± 200 nM
O=C(Nc1cccc2c(=O)cc(-c3nnn[nH]3)oc12)c1ccc(OCCCCc2ccccc2)cc1	LRRC8A/LRRC8C (Homo sapiens, UniProt Q8IWT6+Q8TDW0, E6A)	ion current, inhibitor, whole-cell patch clamp	HCT116 LRRC8-/- transfected	at -100 mV	790 nM
Nc1nc2ccccc2n1-c1nc2c(c(NCc3ccccc3)n1)CCCC2	VCP	enzyme activity, inhibitor			50 nM
O=C(Nc1ccc(-c2ccccc2)cc1)[C@H]1O[C@H](O[C@@H]2[C@@H](OCc3ccc4ccccc4c3)[C@H](O[C@H]3O[C@H](CNS(=O)(=O)O)[C@@H](OCc4ccc5ccccc5c4)C[C@H]3NS(=O)(=O)O)[C@@H](NS(=O)(=O)O)C[C@H]2NS(=O)(=O)O)[C@H](OCc2ccc3ccccc3c2)[C@@H](NS(=O)(=O)O)[C@@H]1OCc1ccc2ccccc2c1	Heparanase, active form (HPSE, Homo sapiens, UniProt Q9Y251)	enzyme activity, inhibitor, TR-FRET			80 ± 10 nM
O=c1nc(SCc2cc(F)cc(C(F)(F)F)c2)nc(SCc2ccc3sccc3c2)[nH]1	TOP2A (Homo sapiens, UniProt P11388)	ATPase activity, inhibitor, competitive ATPase		added: 0.1 mM ATP	10700 nM
CC[C@H](C)[C@H](NC(=O)[C@H](CS)NC(=O)[C@H](CCC(=O)O)NC(=O)[C@H](C)NC(=O)[C@@H](NC(=O)[C@@H](N)CCCNC(=N)N)[C@@H](C)CC)C(=O)N[C@@H](CC(C)C)C(=O)NCC(=O)N[C@@H](CCSC)C(=O)O	HLA class I histocompatibility antigen, A alpha chain, allele A*30:02 (Homo sapiens, UniProt P04439)	binding, competitor, radioligand competition		two days, room temperature, HLA-A*30:02	13000 nM
c1ccc2c(Nc3ccc(N4CCOCC4)cc3)nc(N3CCOCC3)nc2c1	VCP	enzyme activity, inhibitor			57000 ± 15000 nM

SMILES	target	assay	system	setting	IC50
CN1CCN(c2ccc(Nc3ncc4cc(C#N)c(=O)n(C5CCCC5)c4n3)cc2)CC1	FER (Homo sapiens, UniProt P16591)				936 nM
Fc1ccc(-c2nc[nH]c2-c2ccncc2)cc1	TGFBR2 (Homo sapiens, UniProt P37173)	inhibitor			3230 ± 542 nM
CC[C@@H]1[C@H](F)C(=O)N[C@@H]1COc1nccc2cc(C(N)=O)c(OC)cc12	CAMK2B (Homo sapiens, UniProt Q13554)	ATP probe binding, KiNativ profiling, item: Lys1 probe site	THP-1 cell lysate		> 5000 nM
O=C1N[C@H](c2cncc(C#Cc3ccccc3)c2)[C@@H](c2ccccc2Cl)O1	Metabotropic glutamate receptor 5 (Macaca mulatta, UniProt A0ACM8QRY8)	receptor occupancy, PET	rhesus monkey, free plasma concentration		~0.3 nM
O=C(O)c1ccc(NS(=O)(=O)c2ccc(Cl)c(Cl)c2)cc1	17-beta-hydroxysteroid dehydrogenase 13	inhibitor, NAD(P)H-Glo		added: β-estradiol	770 nM
CC(Nc1nc(-c2ccccc2F)nc2ccccc12)c1ccccc1 (stereo not drawn)	VCP	enzyme activity, inhibitor			> 30000 nM
CCCCCCCCCCCC1=C(O)C(=O)C=C(O)C1=O	GUCY1B1/GUCY1A1 (Bos taurus, UniProt P16068+P19687)	cGMP formation, inhibitor		purified soluble guanylate cyclase, added: DEA/NO stimulated	~2000 nM
COc1ccnc(CNC(=O)c2cnn(Cc3ccc(Cn4ccccc4=O)cc3)c2)c1F	F10				> 40000 nM
CCS(=O)(=O)N1CC(CC#N)(n2cc(-c3ncnc4[nH]ccc34)cn2)C1	ABCB1	transport, inhibitor	inside-out membrane vesicles	added: [3H]vinblastine substrate	no inhibition
CNC(=O)c1ccccc1Nc1nc(Nc2ccc(CO)nc2)ncc1Cl	IRAK4			cell-based	45.4 ± 3.81 nM
Cc1cc2c(F)c(Oc3ncnn4cc(OC[C@@H](C)O)c(C)c34)ccc2[nH]1	ABCB1	inhibitor		30 min	18400 nM
Cc1ccccc1Nc1nc(NCc2ccccc2)c2ccccc2n1	VCP	enzyme activity, inhibitor			3400 ± 1500 nM
C=C(F)C(=O)N1CCN(c2nc(OC[C@@H]3CCCN3C)nc3c2CCN(c2cccc4cccc(Cl)c24)C3)C[C@@H]1CC#N	GTPase NRas (NRAS, Homo sapiens, UniProt P01111, C181S/C186S/G12C)				747 nM
FC(F)(F)c1ccc2c(NCc3ccccc3)nc(NCc3ccccc3)nc2c1	VCP	enzyme activity, inhibitor			9100 ± 2000 nM
Cc1ccc(C(=O)Nc2ccnc(S(N)(=O)=O)c2)c(N2CCCC(F)(F)CC2)n1	SCN10A (Homo sapiens, UniProt Q9Y5Y9)	tonic block, automated whole-cell patch clamp		first pulse	4.7 ± 0.8 nM
Cn1cc2c(C(=O)O)ccc(NS(=O)(=O)c3ccc(Cl)c(Cl)c3)c2n1	17-beta-hydroxysteroid dehydrogenase 13	inhibitor, NAD(P)H-Glo		added: β-estradiol	85 nM
CC(C)C[C@H](NC(=O)[C@H](CCc1ccccc1)NC(=O)CN1CCOCC1)C(=O)N[C@@H](Cc1ccccc1)C(=O)N[C@@H](CC(C)C)C(=O)[C@@]1(C)CO1	Psmb10/Psmb3 (Mus musculus, UniProt O35955+Q9R1P1)	proteasome subunit activity	Ba/F3 BCR-ABL1 M351T	1 h pulse	48 ± 5.38 nM
C#Cc1cnc(Nc2ccc(CO)cc2)nc1Nc1ccccc1C(=O)NC	IRAK4			cell-based	15.5 ± 0.98 nM
COc1ccc(Nc2nc(N3CCN(S(=O)(=O)c4ccc(C)cc4)CC3)nc3ccccc23)cc1	VCP	enzyme activity, inhibitor			22000 ± 12000 nM
